Measured values pooled from the literature.
Each line is one published result; not all experiments were run side by side. Several values in a cell are separate wells, animals, samples, runs or records.
PIK3CB: Phosphatidylinositol 4,5-bisphosphate 3-kinase catalytic subunit beta isoform (PIK3CB, Homo sapiens, UniProt P42338)
PIK3CB with p85 alpha: Phosphatidylinositol 4,5-bisphosphate 3-kinase catalytic subunit beta isoform, with p85 alpha (PIK3CB, Homo sapiens, UniProt P42338)

CS(=O)(=O)Nc1cccc(-c2csc3cnc(Nc4ccc(N5CCN(CCCCCOc6cccc7c6C(=O)N(C6CCC(=O)NC6=O)C7=O)CC5)cc4)nc23)c1 (centres unmarked)
inhibition (PIK3CB; probe labelling, inhibitor, KiNativ chemoproteomics; MOLT-4; 1 µM): 33.7%

COc1cc(Nc2nccc(-c3cnn4nc(OC)ccc34)n2)cc(C(F)(F)F)c1
remaining binding (PIK3CB; binding, competition with immobilised ligand; 1 µM): 100%

CNC(=O)C1CCN(c2cc(C)c(F)cc2NC(=O)c2ccc(-c3cc(O)ccc3C)c(C)c2)CC1
remaining binding (PIK3CB; binding, competition with immobilised ligand; 1 µM): 100%

COc1cc(Nc2nc(C)cc(-c3cnn4nc(OC)ccc34)n2)cc(C(F)(F)F)c1
remaining activity (PIK3CB; inhibitor; 1 µM; reference: control): 55%

Cc1cnc2nc1Nc1cccc(c1)COC/C=C/COCc1cc(ccc1OCCN1CCOCC1)N2
remaining binding (PIK3CB; binding; 0.1 µM): 100%

C=CC(=O)Nc1cccc(-c2cnc3[nH]cc(C(=O)NC(C)(C)C)c3n2)c1
inhibition (PIK3CB; kinase activity; 0.1 µM): -1% and 10%

C=CC(=O)N1CCc2ccc(-n3c(=O)ccc4cnc5ccc(-c6cnn(C)c6)cc5c43)cc21
remaining binding (PIK3CB; KINOMEscan; 1 µM; reference: DMSO control): 100%

CC(C)=CC1OC(C)(C)C2C=C3C(=O)C(Cl)=CC(O)C3C3C(O)C4OC4C(=O)C132 (centres unmarked)
remaining binding (PIK3CB; cell-free assay, competition with immobilised ligand; 10 µM): 57%

CN1CC[C@@H](COc2cnc(C#N)cc2-c2ccn3nc(NC(=O)C4CC4)cc3c2)C1
inhibition (PIK3CB with p85 alpha; inhibitor, KinaseProfiler panel; 1 µM): 1%

C=CC(=O)N1CCCC(n2c(=O)c3ncccc3n(Cc3ccc(Oc4ccccc4)cc3)c2=O)C1 (centres unmarked)
remaining binding (PIK3CB; cell-free assay, competition with immobilised ligand; 1 µM): 91%

CC(=O)c1cnc(N)nc1N1CC[C@H]1c1nn2ccc(Cl)c2c(=O)n1-c1ccccc1
remaining binding (PIK3CB; binding, competition with immobilised ligand; 10 µM): 0.45%

CNC1C[S+]2CC[S+]3CC[S+](C1)[Ru-4]321([N]=C=S)[n]2c3ccc(OC)cc3c3c4c(c5cc(F)c[n+]1c5c32)C(=O)NC4=O (centres unmarked)
remaining binding (PIK3CB; KinomeScan; 0.1 µM; reference: untreated): 77%

Nc1ncc2c(n1)-c1c([nH]c3ccc(C4=CCOCC4)cc13)CCC2
remaining binding (PIK3CB; binding, competition with immobilised ligand; 1 µM): 100%

CN1CCN(Cc2ccc(-c3ccc(CO[C@H]4CCC[C@@H]4NC(=O)c4cc(-c5cnn(C)c5)cnc4N)cc3)cc2)CC1
inhibition (PIK3CB with p85 alpha; SelectScreen kinase profiling; 0.1 µM): -1%

C=CC(=O)N1Cc2nc(-c3cc(-c4cc(Cl)cnc4Cl)c(F)cc3F)n(-c3ccncn3)c2C1
inhibition (Phosphatidylinositol 4,5-bisphosphate 3-kinase catalytic subunit beta isoform, with p85 beta (PIK3CB, Homo sapiens, UniProt P42338); kinome panel; 1 µM): -5.5%

COc1c(Cl)cccc1Nc1c(-c2ccncc2C#C[C@@]2(C)CCCN2C(=O)/C=C/CN(C)C)[nH]c2c1C(=O)NCC2
remaining binding (PIK3CB; cell-free assay, competition with immobilised ligand; 3 µM): 96%

Cc1ccc(-c2c(/C=C(\C#N)C(=O)NC(C)C)n(CCCO)c3ncnc(N)c23)cc1
remaining binding (PIK3CB; cell-free assay, competition with immobilised ligand; 1 µM): 92%

C=CC(=O)Nc1cc(-c2nn(C3CCN(CCNC(=O)[C@H](C)CCC45CC6CC(CC(C6)C4)C5)CC3)c3ncnc(N)c23)ccc1Oc1ccccc1
inhibition (PIK3CB; inhibitor, KiNativ profiling; biochemical; 2 µM): 28.8%

Cc1nc2c(F)cc(-c3nc(Nc4ccc(CNC(=O)CCCCCCC(=O)NO)cc4)ncc3F)cc2n1C(C)C
inhibition (PIK3CB with p85 alpha; enzyme activity; 1 µM, p110β/p85α)(h human): 5%

CCN1CCN(Cc2ccc(C(=O)Nc3ccc(C)c(NCc4cnc5[nH]ccc5c4OC)c3)cc2C(F)(F)F)CC1
remaining binding (PIK3CB; binding, competition with immobilised ligand; 1 µM): 68%

Repeated from above:
CS(=O)(=O)Nc1cccc(-c2csc3cnc(Nc4ccc(N5CCN(CCCCCOc6cccc7c6C(=O)N(C6CCC(=O)NC6=O)C7=O)CC5)cc4)nc23)c1 (centres unmarked)
inhibition (PIK3CB; probe labelling, inhibitor, KiNativ chemoproteomics; MOLT-4; 1 µM): 33.7%

Cc1nc2c(F)cc(-c3nc(Nc4ccc(CNC(=O)CCCCCCC(=O)NO)cc4)ncc3F)cc2n1C(C)C
inhibition (PIK3CB with p85 alpha; enzyme activity; 1 µM, p110β/p85α)(h human): 5%

CN1CCN(Cc2ccc(-c3ccc(CO[C@H]4CCC[C@@H]4NC(=O)c4cc(-c5cnn(C)c5)cnc4N)cc3)cc2)CC1
inhibition (PIK3CB with p85 alpha; SelectScreen kinase profiling; 0.1 µM): -1%
